{"data": "Results gathered from unrelated publications", "note": "Parts stem from different laboratories: compare values within a part only."}
{"data": "Sample 1", "target": "Interferon regulatory factor 5, full length, phosphomimetic (IRF5, Homo sapiens, UniProt Q13568-2, residues 1-514, S451D/S453D/S456D/S462D)", "technique": "protein-binding microarray", "form": "double-stranded DNA, one strand shown", "sample": "in vitro", "concentration": "940 nM top", "setting": "60-bp whole probe", "together with": "salmon DNA 0.4 mg/ml", "baseline": "random background probes", "direction": "higher = stronger binding", "all sequences stand within": "GCCTAGCAC … GTCTTGATTCGCTTGACGCTGCTG"}
{"Oligonucleotide": "GATGATCTCAGTTTCGAGACGTGCTAG", "fitted relative affinity": "3.83 z-score"}
{"Oligonucleotide": "GACGGTATCGGTATCGGGGCGTGCTAG", "fitted relative affinity": "8.66 z-score"}
{"Oligonucleotide": "TCATCTTTCACTGCTCCCACTGTGCTA", "fitted relative affinity": "2.12 z-score"}
{"Oligonucleotide": "TTAGACCTCAGTTTCGATTAGTGCTAG", "fitted relative affinity": "7.57 z-score"}
{"Oligonucleotide": "TCATTTCTCATTCGTCATACTGTGCTA", "fitted relative affinity": "2.58 z-score"}
{"Oligonucleotide": "GTAGGTATCCTACTGCTTTAGTGCTAG", "fitted relative affinity": "-0.307 z-score"}
{"data": "Sample 2", "target": "Myc proto-oncogene protein, bHLH-zipper, MAX partner unstated (MYC, Homo sapiens, UniProt P01106, residues 368-449)", "technique": "protein-binding microarray", "form": "double-stranded DNA, one strand shown", "sample": "in vitro", "concentration": "not given", "setting": "k-mer, scored over probes, only values ≥0.25", "direction": "higher = stronger binding", "sequence of UniProt P01106 (368-449, looked up)": "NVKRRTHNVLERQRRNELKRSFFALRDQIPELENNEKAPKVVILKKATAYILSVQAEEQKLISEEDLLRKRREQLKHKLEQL"}
{"Oligonucleotide": "CTCGTGTA", "E-score": 0.44}
{"Oligonucleotide": "AAGCATGA", "E-score": 0.258}
{"Oligonucleotide": "GTGCGGCA", "E-score": 0.32}
{"Oligonucleotide": "CGCCCACG", "E-score": 0.385}
{"Oligonucleotide": "CATATGGG", "E-score": 0.337}
{"Oligonucleotide": "ACATGCGA", "E-score": 0.376}
{"data": "Sample 3", "target": "Sal-like protein 4, full length isoform A (SALL4, Homo sapiens, UniProt Q9UJQ4, residues 1-1053)", "technique": "universal PBM", "form": "double-stranded DNA, one strand shown", "sample": "in vitro", "concentration": "600 nM", "setting": "8-mer, flanks averaged, mean of replicates", "direction": "higher = stronger binding", "sequence of UniProt Q9UJQ4 (whole entry, looked up)": "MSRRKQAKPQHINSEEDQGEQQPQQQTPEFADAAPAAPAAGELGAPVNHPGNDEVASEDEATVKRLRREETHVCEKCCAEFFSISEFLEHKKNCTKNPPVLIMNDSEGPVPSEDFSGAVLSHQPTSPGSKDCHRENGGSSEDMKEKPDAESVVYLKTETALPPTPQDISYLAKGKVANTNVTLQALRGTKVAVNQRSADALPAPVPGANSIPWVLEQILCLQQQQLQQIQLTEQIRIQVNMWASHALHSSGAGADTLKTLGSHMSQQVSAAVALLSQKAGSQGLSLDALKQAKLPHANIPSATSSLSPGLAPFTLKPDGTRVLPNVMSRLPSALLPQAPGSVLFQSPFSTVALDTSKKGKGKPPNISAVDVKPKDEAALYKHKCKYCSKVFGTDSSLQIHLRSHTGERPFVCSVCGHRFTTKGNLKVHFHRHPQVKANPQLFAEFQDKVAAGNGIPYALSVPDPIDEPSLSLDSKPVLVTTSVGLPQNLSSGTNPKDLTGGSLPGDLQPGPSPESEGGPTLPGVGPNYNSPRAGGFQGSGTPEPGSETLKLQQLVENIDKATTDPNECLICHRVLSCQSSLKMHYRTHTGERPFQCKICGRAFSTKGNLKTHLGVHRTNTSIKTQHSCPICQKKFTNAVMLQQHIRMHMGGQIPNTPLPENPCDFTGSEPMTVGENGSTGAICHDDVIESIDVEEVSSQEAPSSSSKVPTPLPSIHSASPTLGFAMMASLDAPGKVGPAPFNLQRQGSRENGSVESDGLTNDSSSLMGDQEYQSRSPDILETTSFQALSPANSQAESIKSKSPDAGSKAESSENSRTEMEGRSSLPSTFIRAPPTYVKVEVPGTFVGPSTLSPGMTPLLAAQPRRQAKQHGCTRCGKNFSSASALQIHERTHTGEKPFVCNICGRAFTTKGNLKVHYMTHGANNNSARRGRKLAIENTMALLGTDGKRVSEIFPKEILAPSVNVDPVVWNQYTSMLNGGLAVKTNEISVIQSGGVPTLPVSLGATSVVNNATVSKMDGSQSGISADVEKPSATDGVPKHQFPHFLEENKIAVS"}
{"Oligonucleotide": "CTACAAAG", "E-score": 0.0783}
{"Oligonucleotide": "CAATTAGG", "E-score": 0.114}
{"Oligonucleotide": "AGCGCAAC", "E-score": -0.077}
{"Oligonucleotide": "CGCGGTAG", "E-score": -0.0957}
{"Oligonucleotide": "AACCGGTA", "E-score": -0.105}
{"Oligonucleotide": "AAAGTTAC", "E-score": 0.158}
{"Oligonucleotide": "ACGGTATC", "E-score": 0.00553}
{"data": "Single results of other studies"}
{"Substance": "PhoQ, residues 284 288 289 292 302 303 SNGLAW", "target": "PhoP, residues 12 14 15 18 19 LQHIR (Escherichia coli, UniProt P23836)", "assay": "Sort-seq, item: YFP reporter", "system": "E. coli", "setting": "PhoQ-PhoP variant library, together with: 10 µM Mg2+", "how to read": "baseline: high Mg2+ state, higher = stronger signaling", "quantity": "fold induction", "value": 4.52}
{"note": "For quick reference, copied from above (single results of other studies):"}
{"Substance": "PhoQ, residues 284 288 289 292 302 303 SNGLAW", "target": "PhoP, residues 12 14 15 18 19 LQHIR (Escherichia coli, UniProt P23836)", "assay": "Sort-seq, item: YFP reporter", "system": "E. coli", "setting": "PhoQ-PhoP variant library, together with: 10 µM Mg2+", "how to read": "baseline: high Mg2+ state, higher = stronger signaling", "quantity": "fold induction", "value": 4.52}
